Measured values of several laboratories.
Lines come from different studies, so protocols differ. “And” joins repeats or separate records; there may be more than shown. ± gives the spread as reported.
PIKFYVE: 1-phosphatidylinositol 3-phosphate 5-kinase (PIKFYVE, Homo sapiens, UniProt Q9Y2I7)
Sequence of UniProt Q9Y2I7 (whole entry, looked up): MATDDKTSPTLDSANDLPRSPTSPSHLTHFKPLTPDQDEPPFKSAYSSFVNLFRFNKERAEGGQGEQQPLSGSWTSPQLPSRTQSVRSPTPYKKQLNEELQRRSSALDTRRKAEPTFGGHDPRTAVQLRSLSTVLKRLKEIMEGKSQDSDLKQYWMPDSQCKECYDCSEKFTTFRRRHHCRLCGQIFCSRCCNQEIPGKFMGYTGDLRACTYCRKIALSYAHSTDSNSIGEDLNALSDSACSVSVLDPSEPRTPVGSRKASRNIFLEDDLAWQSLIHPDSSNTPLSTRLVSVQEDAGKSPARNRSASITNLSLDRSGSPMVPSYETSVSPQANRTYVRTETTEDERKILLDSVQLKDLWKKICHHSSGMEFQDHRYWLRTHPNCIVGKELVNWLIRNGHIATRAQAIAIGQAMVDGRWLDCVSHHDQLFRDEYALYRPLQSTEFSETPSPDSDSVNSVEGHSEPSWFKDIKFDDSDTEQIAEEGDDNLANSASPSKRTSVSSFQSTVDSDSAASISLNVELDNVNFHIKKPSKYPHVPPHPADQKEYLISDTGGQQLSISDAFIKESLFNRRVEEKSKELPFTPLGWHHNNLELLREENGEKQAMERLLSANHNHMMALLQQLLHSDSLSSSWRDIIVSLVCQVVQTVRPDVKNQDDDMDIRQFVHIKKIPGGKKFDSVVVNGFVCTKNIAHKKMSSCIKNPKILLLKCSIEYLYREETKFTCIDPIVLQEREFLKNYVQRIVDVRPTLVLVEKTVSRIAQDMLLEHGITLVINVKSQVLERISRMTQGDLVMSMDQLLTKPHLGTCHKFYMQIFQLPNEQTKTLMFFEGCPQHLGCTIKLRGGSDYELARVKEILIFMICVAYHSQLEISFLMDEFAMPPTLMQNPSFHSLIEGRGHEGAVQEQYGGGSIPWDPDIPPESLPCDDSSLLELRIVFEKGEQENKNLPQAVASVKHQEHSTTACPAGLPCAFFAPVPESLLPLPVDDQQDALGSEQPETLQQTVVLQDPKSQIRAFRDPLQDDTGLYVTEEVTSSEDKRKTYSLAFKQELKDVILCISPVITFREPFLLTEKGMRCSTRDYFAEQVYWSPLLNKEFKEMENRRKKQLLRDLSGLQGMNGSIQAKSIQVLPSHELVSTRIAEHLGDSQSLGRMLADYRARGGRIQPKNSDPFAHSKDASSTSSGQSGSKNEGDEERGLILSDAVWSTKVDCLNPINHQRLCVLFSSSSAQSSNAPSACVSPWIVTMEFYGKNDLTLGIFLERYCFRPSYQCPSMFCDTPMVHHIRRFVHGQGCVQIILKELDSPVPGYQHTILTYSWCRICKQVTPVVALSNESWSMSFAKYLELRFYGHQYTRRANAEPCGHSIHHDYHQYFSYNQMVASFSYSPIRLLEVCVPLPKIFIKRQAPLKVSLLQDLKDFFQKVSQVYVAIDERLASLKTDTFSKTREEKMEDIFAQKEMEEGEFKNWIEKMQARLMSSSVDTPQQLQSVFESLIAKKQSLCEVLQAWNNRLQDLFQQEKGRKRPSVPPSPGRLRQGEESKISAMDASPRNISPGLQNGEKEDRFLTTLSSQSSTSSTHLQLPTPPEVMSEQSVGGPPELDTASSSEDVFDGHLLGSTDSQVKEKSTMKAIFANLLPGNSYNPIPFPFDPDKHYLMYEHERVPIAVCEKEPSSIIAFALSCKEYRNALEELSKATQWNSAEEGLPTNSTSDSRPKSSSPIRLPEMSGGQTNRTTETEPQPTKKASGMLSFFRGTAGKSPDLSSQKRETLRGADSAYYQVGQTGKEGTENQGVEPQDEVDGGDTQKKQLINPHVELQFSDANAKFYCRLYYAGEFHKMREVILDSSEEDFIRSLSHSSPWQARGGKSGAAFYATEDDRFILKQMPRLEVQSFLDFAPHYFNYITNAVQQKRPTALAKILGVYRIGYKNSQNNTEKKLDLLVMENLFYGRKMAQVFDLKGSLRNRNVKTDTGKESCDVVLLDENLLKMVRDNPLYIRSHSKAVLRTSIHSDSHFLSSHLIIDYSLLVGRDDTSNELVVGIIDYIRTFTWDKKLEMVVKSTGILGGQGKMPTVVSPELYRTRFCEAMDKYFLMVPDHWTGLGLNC
Sequence of UniProt P07026 (whole entry, looked up): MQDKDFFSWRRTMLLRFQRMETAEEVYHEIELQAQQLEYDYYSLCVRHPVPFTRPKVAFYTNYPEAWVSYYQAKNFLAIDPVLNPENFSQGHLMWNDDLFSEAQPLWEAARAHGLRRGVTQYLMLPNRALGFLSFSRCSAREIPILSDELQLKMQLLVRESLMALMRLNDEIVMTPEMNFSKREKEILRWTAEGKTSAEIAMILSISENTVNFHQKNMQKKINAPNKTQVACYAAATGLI
Sequence of UniProt Q9NX63 (whole entry, looked up): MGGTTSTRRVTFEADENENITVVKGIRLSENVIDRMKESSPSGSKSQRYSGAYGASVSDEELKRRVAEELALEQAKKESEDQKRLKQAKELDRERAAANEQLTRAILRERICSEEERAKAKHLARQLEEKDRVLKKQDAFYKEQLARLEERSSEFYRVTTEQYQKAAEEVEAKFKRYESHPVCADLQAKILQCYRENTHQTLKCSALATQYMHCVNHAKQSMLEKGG
Sequence of UniProt P49888 (whole entry, looked up): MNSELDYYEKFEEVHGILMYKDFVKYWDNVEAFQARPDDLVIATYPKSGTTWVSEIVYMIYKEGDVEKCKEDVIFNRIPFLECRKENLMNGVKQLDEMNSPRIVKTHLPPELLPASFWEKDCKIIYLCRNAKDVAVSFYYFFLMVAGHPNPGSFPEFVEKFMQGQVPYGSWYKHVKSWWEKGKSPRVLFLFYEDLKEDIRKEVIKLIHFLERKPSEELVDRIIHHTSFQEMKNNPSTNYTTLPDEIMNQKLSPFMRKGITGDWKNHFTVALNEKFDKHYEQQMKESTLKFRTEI
Sequence of UniProt P07148 (whole entry, looked up): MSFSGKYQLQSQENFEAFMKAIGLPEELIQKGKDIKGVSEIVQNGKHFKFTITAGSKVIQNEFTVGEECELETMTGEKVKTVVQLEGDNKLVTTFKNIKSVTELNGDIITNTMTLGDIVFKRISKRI
Sequence of UniProt P05067 (whole entry, looked up): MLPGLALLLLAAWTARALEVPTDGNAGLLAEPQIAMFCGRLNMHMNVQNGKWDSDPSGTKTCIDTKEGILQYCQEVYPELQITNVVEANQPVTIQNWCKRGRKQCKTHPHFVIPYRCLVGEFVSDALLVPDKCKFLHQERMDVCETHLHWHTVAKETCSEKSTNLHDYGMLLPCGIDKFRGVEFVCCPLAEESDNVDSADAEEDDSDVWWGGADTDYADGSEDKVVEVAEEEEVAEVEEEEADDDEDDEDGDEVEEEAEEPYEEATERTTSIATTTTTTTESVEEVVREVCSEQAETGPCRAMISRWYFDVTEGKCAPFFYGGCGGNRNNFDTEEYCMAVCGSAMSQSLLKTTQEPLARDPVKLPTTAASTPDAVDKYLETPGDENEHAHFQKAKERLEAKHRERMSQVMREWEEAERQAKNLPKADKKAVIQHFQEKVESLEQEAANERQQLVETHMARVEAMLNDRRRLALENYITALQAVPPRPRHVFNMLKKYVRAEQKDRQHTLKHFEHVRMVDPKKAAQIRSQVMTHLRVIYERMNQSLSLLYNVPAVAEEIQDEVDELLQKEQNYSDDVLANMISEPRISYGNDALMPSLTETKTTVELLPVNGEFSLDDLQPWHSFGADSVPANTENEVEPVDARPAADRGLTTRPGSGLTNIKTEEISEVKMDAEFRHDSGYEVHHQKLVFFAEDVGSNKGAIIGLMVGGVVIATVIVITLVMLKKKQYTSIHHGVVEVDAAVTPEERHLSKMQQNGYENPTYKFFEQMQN
Sequence of UniProt Q9H3N8 (whole entry, looked up): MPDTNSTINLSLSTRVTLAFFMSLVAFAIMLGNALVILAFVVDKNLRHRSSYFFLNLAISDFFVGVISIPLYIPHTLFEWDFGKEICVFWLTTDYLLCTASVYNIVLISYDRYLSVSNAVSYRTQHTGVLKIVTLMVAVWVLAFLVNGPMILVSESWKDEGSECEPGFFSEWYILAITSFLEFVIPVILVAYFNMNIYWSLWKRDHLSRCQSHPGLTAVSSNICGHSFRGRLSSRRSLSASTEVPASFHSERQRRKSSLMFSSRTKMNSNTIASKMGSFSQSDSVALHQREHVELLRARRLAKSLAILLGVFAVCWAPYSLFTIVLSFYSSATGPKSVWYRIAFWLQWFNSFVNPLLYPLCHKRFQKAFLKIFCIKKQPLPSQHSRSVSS
Sequence of UniProt Q9UGM1 (whole entry, looked up): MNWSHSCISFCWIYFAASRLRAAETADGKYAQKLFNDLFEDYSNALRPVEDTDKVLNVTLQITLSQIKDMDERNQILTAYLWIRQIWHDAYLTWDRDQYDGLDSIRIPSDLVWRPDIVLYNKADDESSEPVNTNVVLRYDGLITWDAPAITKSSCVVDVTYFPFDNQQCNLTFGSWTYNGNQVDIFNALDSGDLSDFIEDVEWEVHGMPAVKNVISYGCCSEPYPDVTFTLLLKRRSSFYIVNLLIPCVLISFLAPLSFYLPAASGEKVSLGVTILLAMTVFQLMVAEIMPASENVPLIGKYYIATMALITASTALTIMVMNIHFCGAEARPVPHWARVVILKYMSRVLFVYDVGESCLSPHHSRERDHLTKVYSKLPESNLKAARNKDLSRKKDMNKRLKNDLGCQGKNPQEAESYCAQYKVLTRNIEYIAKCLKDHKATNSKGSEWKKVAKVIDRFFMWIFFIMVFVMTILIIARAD
Sequence of UniProt Q9Y3R4 (whole entry, looked up): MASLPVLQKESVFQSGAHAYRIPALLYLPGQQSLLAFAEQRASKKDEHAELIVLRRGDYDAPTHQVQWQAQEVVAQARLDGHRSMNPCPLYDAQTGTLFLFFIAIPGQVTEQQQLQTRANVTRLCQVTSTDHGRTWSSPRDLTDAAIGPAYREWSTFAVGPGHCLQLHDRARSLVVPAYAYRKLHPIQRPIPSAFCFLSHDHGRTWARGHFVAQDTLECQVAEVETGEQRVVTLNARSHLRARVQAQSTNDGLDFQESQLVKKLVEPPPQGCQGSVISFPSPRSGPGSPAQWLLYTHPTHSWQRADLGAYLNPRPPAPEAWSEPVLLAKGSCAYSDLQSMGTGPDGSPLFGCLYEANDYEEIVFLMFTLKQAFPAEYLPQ

CC1(C)C=C(CNc2ccc3c(c2)Cc2cc(Br)ccc2-3)C(C)(C)N1[O]: “T1 relaxation time” 1120 ms (Amyloid-beta precursor protein, amyloid-beta (APP, Homo sapiens, UniProt P05067); MRI, MSME; 5xFAD mice, brain; iv, 3 mg/kg, 24 h).
With O=C(O)COP(=O)(O)O the Ki ratio was 3.2 (TPI1 (Saccharomyces cerevisiae, UniProt P00942, S211G); enzyme activity, competitive inhibitor, GPDH/NADH-coupled; pH 4.9, 25 °C, ionic strength 0.1 NaCl, together with: glyceraldehyde 3-phosphate substrate; baseline: mutant over wild type).
The kcat of CCCCC/C=C\C/C=C\C/C=C\C/C=C\CCCC(=O)O is reported as 7.12 ± 0.05 µmol/min/nmol (cyp102A1 (Bacillus megaterium, UniProt P14779); NADPH consumption, substrate; 100 µM).
For COc1ccc(N2C(=O)N(c3c(C)cccc3Cl)Cc3cnc(Nc4ccc(C5CCN(C)CC5)cc4OC)nc32)nc1, the inhibition was 10% (PIKFYVE; kinase activity; 0.5 µM).
With CN(C(=O)n1cnc(-c2ccc[n+]([O-])c2)c1)C1CCCCC1 the inhibition was 4% (dopamine D4.2 receptor, human; binding; 50 µM, together with: [3H]spiperone).
With CN1CCN(c2cc(-c3ccncc3)c(-c3ccc4ccccc4c3)nn2)CC1 the activation was 0% (ADORA1 (Homo sapiens, UniProt P30542); agonist, FLIPR; 12.5 µM).
For CC[N+]1(CC)CCN(c2ccccc2)CC1, “response relative to ACh” read under 5% (CHRNA9 (Homo sapiens, UniProt Q9UGM1); peak current, agonist, two-electrode voltage clamp; Xenopus oocytes coexpressing rapsyn; 30 µM; baseline: ACh 60 µM).
CCCCCCCCCC(=O)CC(=O)N[C@H]1CCOC1=O gave an Emax of 111% (Regulatory protein SdiA (sdiA, Escherichia coli, UniProt P07026)).
O=C(Nc1cnccc1Cl)N1CCN(Cc2ccc3c(c2)OC(F)(F)O3)CC1: “inhibition of binding” 10% (HRH4 (Homo sapiens, UniProt Q9H3N8); radioligand binding; 50 µM, together with: [3H]histamine).
O=C(c1ccc(Cl)cc1)N1CCN2C(=O)N(OC(=O)N3CCOc4ccccc43)C(=O)C2C1 (stereo not drawn) has a peptide ratio of 1 and 1.43 and 1.01 and 0.96 and 0.92 and 1.13 and 0.89 (ACTB (Homo sapiens, UniProt P60709); MS-based ABPP; SW-620 conditioned medium; 10 µM; baseline: compound over DMSO, lower = more inhibition).
COc1cc(N)c(Cl)cc1C(=O)NC1CN2CCC1CC2 (stereo not drawn): “log2 fold change” 0.021 (Adhesion G protein-coupled receptor A1 (ADGRA1, Homo sapiens, UniProt Q86SQ6); β-arrestin recruitment, TANGO luminescence, measured: GPR123; concentration not given; baseline: basal luminescence).
For O=C(NS(=O)(=O)/C=C/c1cccs1)c1ccc(F)cc1Br, “binding fold change” read 48.3 (FABP1 (Homo sapiens, UniProt P07148); affinity selection mass spectrometry; 100 nM, together with: pooled compounds; baseline: other proteins).
O=C(NNC(=O)c1csnn1)c1ccc(Cl)cc1 gave a remaining activity of 98.5% (Acetyl-CoA synthetase (Cryptococcus neoformans, UniProt J9VFT1); 48.9 nM).
For Cn1nccc1[C@]1(CNC(=O)c2ccc(F)c(F)c2-c2ccc(C(F)(F)F)cc2)NC(=O)NC1=O, the selectivity ratio was over 16700 (Caspase-3 (CASP3, Homo sapiens, UniProt P42574); inhibitor; baseline: CASP3 over target).
CC(=O)N[C@@H](Cc1c[nH]c2ccccc12)C(=O)OCc1cc(C(F)(F)F)cc(C(F)(F)F)c1 has a Ke of 250 ± 87 nM (Substance-P receptor (Cavia porcellus, UniProt P30547); substance P-induced contraction, antagonist; guinea pig ileum; together with: naloxone 1 µM).
The delta Tm of CCN(CC)CCCC[C@H](NC(=O)[C@H](CC(C)C)NC(=O)[C@H](C)NC(=O)[C@H](Cc1ccccc1)NC(=O)c1ccc(C(C)(C)C)cc1)C(=O)N[C@@H](CO)C(=O)OC is reported as 0.56 °C (Protein polybromo-1, BD4 (PBRM1, Homo sapiens, UniProt Q86U86); thermal stabilisation, thermal shift; 25 µM; baseline: protein without compound, higher = stronger binding).
CC[C@@H](C)[C@@H](NC(=O)[C@@H](Cc1ccc(O)cc1)NC(=O)[C@H]1CCCN1C(=O)[C@@H](CCCNC(=N)N)NC(=O)[C@H](N)Cc1c[nH]cn1)C(=O)N[C@H](C)C(=O)N[C@H](Cc1c[nH]cn1)C(=O)N[C@H](CCCNC(=N)N)C(=O)N[C@H](CCCCNC(=O)c1cccc(S(=O)(=O)F)c1)C(=O)N[C@H](Cc1ccc(O)cc1)C(=O)N[C@H](CO)C(=O)N[C@H](Cc1ccccc1)C(N)=O: “surface TFRC expression” 0.469 (Transferrin receptor protein 1 (Tfrc, Mus musculus, UniProt Q62351); flow cytometry; MC-38; 48 h, unit not given; baseline: 0 h).
O=c1cc(CSc2ccc(N=Cc3ccccc3)cc2)occ1O — result for “binding sites number”: 1.25 (PPO3 (Agaricus bisporus, UniProt C7FF04); fluorescence quenching; concentration not given).
O=C(CF)N[C@H]1[C@H]([C@H](O)[C@H](O)CO)O[C@@](OC[C@H]2O[C@@H](Oc3ccc([N+](=O)[O-])cc3)[C@H](O)[C@@H](O)[C@H]2O)(C(=O)O)C[C@@H]1O has a Km of 1000 ± 200 µM (Sialidase-2 (Homo sapiens, UniProt Q9Y3R4); substrate; 10 min, pH 5.0, 37 °C).
With [2H]c1c([2H])c([C@]2([2H])CCCN2C(=O)C(C)(C)Oc2ccc3cn[nH]c3c2)c([2H])c([2H])c1C([2H])([2H])[2H] the remaining binding was 86% (PIKFYVE; KINOMEscan; 1 µM; baseline: DMSO control).
COc1cc(Nc2ncc(F)c(Nc3ccc4c(n3)NC(=O)C(C)(C)O4)n2)cc(OC)c1OC has an inhibition of 0% (CDK14 (Homo sapiens, UniProt O94921); binding, KINOMEscan; 10 µM, PFTK1 kinase).
CC[C@H](CO)Nc1nc(NCc2ccccc2)c2ncn(C(C)C)c2n1 gave a binding score of 4.5 (HIPK4 (Homo sapiens, UniProt Q8NE63); KINOMEscan; 10 µM; direction not given).
Nc1nc2c(ncn2[C@@H]2O[C@@H]3COP(=O)(O)O[C@H]4[C@@H](O)[C@H](n5cnc6c(=O)[nH]c(N)nc65)O[C@@H]4COP(=O)(O)O[C@H]3[C@H]2O)c(=O)[nH]1 gave an association constant of 39800 ± 7200 M⁻¹ (Cell cycle histidine kinase CckA, R374A; cytoplasmic region (Caulobacter vibrioides, UniProt Q9X688, R374A); binding, ITC; together with: ADP 5 mM).
Oc1c(Br)cc(Br)cc1Oc1ccc(Br)cc1Br has an apparent Vmax of 13.9 nmol/min/mg protein (SULT1E1 (Homo sapiens, UniProt P49888); sulfonation, substrate).
CC=O gave a pK of 9.27 ± 0.04 (ADH1 (Saccharomyces cerevisiae, UniProt P00330, H49Q); turnover number pH profile, substrate).
With C[C@H]1CN(c2n[nH]c3nc(N[C@H]4CC[C@H](NS(=O)(=O)CCC(F)(F)F)CC4)ncc23)CCO1 the remaining binding was 1.09 (MICOS complex subunit MIC19 (Homo sapiens, UniProt Q9NX63); Kinobeads competition, measured: CHCHD3; 0.032 µM, unit not given; baseline: vehicle).
With CCOC(=O)CC(SP(=O)(OC)OC)C(=O)OCC (stereo not drawn) the remaining activity was 52.7% (uncharacterized protein (Anopheles coluzzii, UniProt A0A6E8VQK1); enzyme activity, inhibitor; Sf9 cell homogenate; 0.2294 µM, 0.1667 h, together with: α-naphthyl acetate substrate; baseline: no inhibitor).

For quick reference, copied from above:
With CN1CCN(c2cc(-c3ccncc3)c(-c3ccc4ccccc4c3)nn2)CC1 the activation was 0% (ADORA1 (Homo sapiens, UniProt P30542); agonist, FLIPR; 12.5 µM).
For COc1ccc(N2C(=O)N(c3c(C)cccc3Cl)Cc3cnc(Nc4ccc(C5CCN(C)CC5)cc4OC)nc32)nc1, the inhibition was 10% (PIKFYVE; kinase activity; 0.5 µM).
